Measurements collected from several papers.
Protocols differ between the studies behind these lines. ± gives the spread as reported.
Chain of UniProt P50613 (whole entry, looked up): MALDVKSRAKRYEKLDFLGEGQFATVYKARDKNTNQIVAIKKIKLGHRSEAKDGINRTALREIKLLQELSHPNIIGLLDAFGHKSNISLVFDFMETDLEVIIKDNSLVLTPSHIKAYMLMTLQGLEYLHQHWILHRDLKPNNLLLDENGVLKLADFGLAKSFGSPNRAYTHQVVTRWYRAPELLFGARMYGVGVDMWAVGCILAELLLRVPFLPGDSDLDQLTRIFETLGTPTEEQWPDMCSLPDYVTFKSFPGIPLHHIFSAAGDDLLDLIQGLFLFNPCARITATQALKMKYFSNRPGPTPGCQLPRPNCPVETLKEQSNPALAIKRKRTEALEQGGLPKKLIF

SMILES	target or system	test	test system	conditions	quantity	value
CC1(C)OB(c2ccccc2NS(=O)(=O)c2cc(C(=O)Nc3ccc(F)c(F)c3)ccc2F)OC1(C)C	hepatitis B virus	viral replication, qPCR, refers to: positive-strand HBV DNA	HepDES19, genotype D	3 days	EC50	> 5 µM
Fc1ccc(C(OCCN2CCN(CCCc3ccccc3)CC2)c2ccc(F)cc2)cc1	Toxoplasma gondii	parasite growth	HFF, bradyzoite, glutamine-induced		EC50	7.84 µM
CCN(CCCOc1ccc2c(Nc3cc(CC(=O)Nc4cccc(F)c4)n[nH]3)ncnc2c1)CCOP(=O)(O)O	human coronavirus OC43	virus-induced cell killing	MRC-5	maximum over 10 doses	maximum inhibition	0%
CC(C)[C@H](NC(=O)c1ccccc1NC(=O)c1ccccn1)C(=O)N[C@H](CO)C(C)C	human coronavirus OC43	viral replication, plaque reduction	MRC-5	6 days	EC50	> 50 µM
CC1(C)OB(c2ccc(CNS(=O)(=O)c3cc(C(=O)Nc4cc(F)c(F)c(F)c4)ccc3F)cc2)OC1(C)C	hepatitis B virus	viral replication, qPCR, refers to: positive-strand HBV DNA	HepDES19, genotype D	3 days	EC50	1.3 µM
COc1cc2c3c(c1OC)-c1ccccc1C[C@H]3N(C)CC2	Toxoplasma gondii	parasite growth	HFF, bradyzoite, alkaline-induced		EC50	4.27 µM
Nc1ccn(C[C@@H](CO)OCP(=O)(O)O)c(=O)n1	human alphaherpesvirus 2		HEL, strain G		EC50	1 µM
C[C@H]1CN(c2n[nH]c3nc(N[C@H]4CC[C@H](NS(=O)(=O)CCC(F)(F)F)CC4)ncc23)CCO1	CDK7 (Homo sapiens, UniProt P50613)	competitor, Kinobeads competition	HEK293, K562, placenta extract		Hill slope	1.11
N#C[C@@]1(n2ccc(N)nc2=O)O[C@H](CO)[C@@H](O)[C@H]1O	human coronavirus OC43	viral replication, cell-based			EC50	> 15 µM
CC1(C)OB(c2cccc(NS(=O)(=O)c3cc(C(=O)Nc4cc(F)c(F)c(F)c4)ccc3F)c2)OC1(C)C	hepatitis B virus	viral replication, qPCR, refers to: positive-strand HBV DNA	HepDES19, genotype D	3 days	EC50	> 5 µM
CN(Cc1ccc(C(C)(C)C)cc1)Cc1cccc2ccccc12	human coronavirus OC43	virus-induced cell killing	MRC-5	screen	maximum inhibition	9.54%
CC1(C)OB(c2cccc(CNS(=O)(=O)c3cc(C(=O)Nc4cc(F)c(F)c(F)c4)ccc3F)c2)OC1(C)C	hepatitis B virus	viral replication, strand-preferential qPCR, refers to: positive-strand HBV DNA	HepDES19 cells, genotype D	3 days	EC50	1.6 µM
COc1ccc(NC(=O)N2CCCCN3[C@H](CN(C)C)[C@H](c4ccc(C#Cc5ccccc5)cc4)[C@@H]3C2)cc1	Toxoplasma gondii	bradyzoite growth		pH 8.2, alkaline-induced bradyzoites	EC50	0.22 µM
COc1ccc([C@@]23Oc4cc(OC)cc(OC)c4[C@@]24N=C(C)N[C@@]4(O)[C@H](C(=O)N(C)OC)[C@H]3c2ccccc2)cc1	Hepatitis E virus	viral replication	HepG2 HEV-3 replicon, genotype 3	48 h, racemate	EC50	0.001 µM
CCNC(=O)[C@@H](NC(=O)c1ccccc1NC(=O)c1ccc(OC)cc1)C(C)C	human coronavirus OC43	viral replication, plaque reduction	MRC-5	6 days	EC50	> 50 µM
CC1(C)OB(c2ccc(NS(=O)(=O)c3cc(C(=O)Nc4cc(F)c(F)c(F)c4)ccc3F)cc2)OC1(C)C	hepatitis B virus	viral replication, qPCR, refers to: positive-strand HBV DNA	HepDES19, genotype D	3 days	EC50	3.47 µM
[2H]C([2H])(c1cc(F)c(F)cc1F)n1c(=O)n(Cc2ncn(C)n2)c(=O)[nH]/c1=N\c1cc2cn(C)nc2cc1Cl	canine coronavirus	viral replication, qRT-PCR	CRFK		EC50	~50 µM
COCC(=O)N1CCC[C@H](C(=O)NCc2nc(-c3ccc(C#N)cc3)cs2)C1	Plasmodium falciparum		Dd2 β5 S28L resistant		EC50	0.22 ± 0.043 µM
c1ccc2c(c1)[I+]c1ccccc1-2	Toxoplasma gondii			alkaline-induced bradyzoites	EC50	0.273 µM
CC1(C)OB(c2ccccc2NS(=O)(=O)c2cc(C(=O)Nc3cc(F)c(F)c(F)c3)ccc2F)OC1(C)C	hepatitis B virus	viral replication, qPCR, refers to: positive-strand HBV DNA	HepDES19, genotype D	3 days	EC50	> 5 µM
COC(=O)[C@@H]1[C@@H](c2ccccc2)[C@]2(c3ccc(OC)cc3)Oc3cc(OC)cc(OC)c3[C@@]23N=C(C)N[C@@]13O	Hepatitis E virus	viral replication	HepG2 HEV-3 replicon, genotype 3	24 h, racemate	EC50	0.002 µM
O=C(N1CCC2(CC1)C[C@H](CN1CCCCS1(=O)=O)CCO2)C1(c2ccccc2)CCCC1	echovirus 11	viral replication			EC50	> 32 µM
Nc1ccn(C[C@@H](CO)OCP(=O)(O)O)c(=O)n1	human alphaherpesvirus 2	virus-induced cytopathogenicity	HEL, G		EC50	1 µM
C[C@H]1CCC/C=C/[C@@H]2C[C@H](O)C[C@H]2[C@H](O)/C=C/C(=O)O1	Toxoplasma gondii	parasite growth, luciferase reporter	HFF host cells, tachyzoites	72 h	EC50	0.06 µM
CC1(C)OB(c2ccc(NS(=O)(=O)c3cc(C(=O)Nc4ccc(F)c(F)c4)ccc3F)cc2)OC1(C)C	hepatitis B virus	viral replication, qPCR, refers to: positive-strand HBV DNA	HepDES19, genotype D	3 days	EC50	4.43 µM
C[C@@H]1C[C@@H]([C@H](O)CC2CC(=O)NC(=O)C2)C(=O)[C@@H](C)C1	Mus musculus	gene silencing, high-content imaging	LDR reporter GFP cells	confirmation, mean of two runs	EC50	0.794 µM
CN1CC[C@@]2(C)c3cc(OC(=O)Nc4ccccc4)ccc3N(C)[C@@H]12	Toxoplasma gondii	parasite growth	HFF, bradyzoite, glutamine-induced		EC50	2.61 µM
O=C(Nc1cc(F)c(F)c(F)c1)c1ccc(F)c(S(=O)(=O)NCc2ccc(B(O)O)cc2)c1	hepatitis B virus	viral replication, qPCR, refers to: positive-strand HBV DNA	HepDES19, genotype D	3 days	EC50	1.17 µM

Excerpt of the above:
SMILES	target or system	test	test system	conditions	quantity	value
C[C@@H]1C[C@@H]([C@H](O)CC2CC(=O)NC(=O)C2)C(=O)[C@@H](C)C1	Mus musculus	gene silencing, high-content imaging	LDR reporter GFP cells	confirmation, mean of two runs	EC50	0.794 µM
COC(=O)[C@@H]1[C@@H](c2ccccc2)[C@]2(c3ccc(OC)cc3)Oc3cc(OC)cc(OC)c3[C@@]23N=C(C)N[C@@]13O	Hepatitis E virus	viral replication	HepG2 HEV-3 replicon, genotype 3	24 h, racemate	EC50	0.002 µM
